Measurements collected from several papers.
Lines come from different studies, so protocols differ. Several values in a cell are separate wells, animals, samples, runs or records.

CC(C)c1ccc(N(C)c2ccc3c(c2)OCC[C@H]3CNc2cnccc2C(=O)O)cc1 gave an IC50 of 40 nM (SK-LU-1; cell viability, CellTiter-Glo; 7 days).
CNS(=O)(=O)Nc1nccc(Cc2c(C)c3ccc(Oc4ncccc4F)cc3oc2=O)c1F gave an IC50 of 2.45 nM (SW626; cell viability; 7 days).
Under “log2 fold change”, Cn1ncc2cc(-c3cncc(Cl)c3N3CCC4(CCNC4=O)CC3)ccc21 is recorded as 2.81 (LS174T; gene expression, microarray, refers to: MYL9 mRNA; concentration not given, 4 h; baseline: untreated cells).
For CCN(C(=O)c1cc(F)ccc1Oc1nncnc1N1CCC2(C1)CN([C@H](CCCN(C)CCOC)C(C)C)C2)C(C)C, the GI50 was greater than 10 µM (A673; muscle; 72 h).
CO[C@@H]1[C@@H](OC(N)=O)[C@@H](O)[C@H](Oc2ccc3c(O)c(NC(=O)c4ccc(O)c(CC=C(C)C)c4)c(=O)oc3c2C)OC1(C)C gave a colony survival of 0.12% (DLD-1 parental; 250 µM; baseline: untreated).
For CN1CCCNC(=O)c2cccc(c2)C(=O)NCCCN(C)CCCNc2cccc3c2C(=O)c2cccc(c2C3=O)NCCC1, “log2 fold change” read 2.25 (SAS; RNA-Seq, refers to: GADD45B mRNA; 5 µM, 6 h; baseline: untreated cells).
For Cc1ncsc1-c1ccc(C(C)NC(=O)C2CC(O)CN2C(=O)C(NC(=O)CCCCCCCCCCN2CCCC(Nc3ncc(Cl)c(Nc4ccccc4S(=O)(=O)C(C)C)n3)C2)C(C)(C)C)cc1 (stereo not drawn), “log2 fold change” read -1.81 (22Rv1; RNA-seq, refers to: PAX1 mRNA; concentration not given; baseline: DMSO).
For COc1ccccc1-c1ccncc1C(=O)Nc1nnc(OCc2ccc(Cl)cc2)s1, the colony count was 36 and 34 and 24 and 25 (MDA-MB-231; 0.1875 µM, single replicate).
CCN(CC)CC(=O)Nc1cccc(-n2cc(-c3ccc4ccc(-c5cn(-c6cccc(NC(=O)CN(CC)CC)c6)nn5)cc4c3)nn2)c1 has a fold regulation of -1.27 (RCC4; PCR angiogenesis array, refers to: PGF; 5 x IC50, 2 h, normoxia; baseline: untreated).

Repeated from above:
For Cc1ncsc1-c1ccc(C(C)NC(=O)C2CC(O)CN2C(=O)C(NC(=O)CCCCCCCCCCN2CCCC(Nc3ncc(Cl)c(Nc4ccccc4S(=O)(=O)C(C)C)n3)C2)C(C)(C)C)cc1 (stereo not drawn), “log2 fold change” read -1.81 (22Rv1; RNA-seq, refers to: PAX1 mRNA; concentration not given; baseline: DMSO).
